{"data": "Assay results of several laboratories", "route": "oral", "note": "Each line is one published result; not all experiments were run side by side."}
{"SMILES": "COC(=O)c1ccc2c(c1)NC(=O)/C2=C(\\Nc1ccc2c(c1)CCN2C(=O)CN1CCOCC1)c1ccccc1", "system": "Sprague-Dawley rat, plasma", "setting": "10 mg/kg", "bioavailability [%]": 68}
{"SMILES": "CC12CC3CC(C)(C1)CC(NC(=O)Nc1ccc(C(=O)N4CCC[C@H](C(N)=O)C4)cc1F)(C3)C2", "system": "Sprague-Dawley rat, plasma", "setting": "50 mg/kg", "bioavailability [%]": 28.6}
{"SMILES": "CC1(C)CC[C@]2(C(=O)O[C@@H]3O[C@H](CO[C@@H]4O[C@H](CO)[C@@H](O)[C@H](O)[C@H]4O)[C@@H](O)[C@H](O)[C@H]3O)CC[C@]3(C)C(=CC[C@@H]4[C@@]5(C)CC[C@H](O[C@@H]6OC[C@H](O)[C@H](O)[C@H]6O)[C@@](C)(CO)[C@@H]5CC[C@]43C)[C@@H]2C1", "system": "Sprague-Dawley rat, plasma", "setting": "150 mg/kg", "bioavailability [%]": 0.19}
{"SMILES": "OC1(C(F)(F)F)CCN(c2nc(Nc3ccnc(C(F)(F)F)c3)nc(-c3cccc(C(F)(F)F)n3)n2)C1 (stereo not shown)", "system": "Sprague-Dawley rat, plasma", "setting": "20 mg/kg", "bioavailability [%]": 168}
{"SMILES": "O=C(N[C@@H](CC1CCCCC1)C(=O)N[C@@H](C[C@H]1CCNC1=O)C(=O)C(=O)NC1CC1)OCc1cccc(Cl)c1", "system": "female Sprague-Dawley rat, plasma", "setting": "10 mg/kg", "bioavailability [%]": 20}
{"SMILES": "Cc1ccc(OCC(=O)N(Cc2cccs2)c2ccn[nH]2)cc1", "system": "male Sprague-Dawley rat, plasma", "setting": "100 mg/kg, single dose", "bioavailability [%]": 0.23}
{"SMILES": "N#Cc1cnc2cc(OCC3CCNCC3)c(F)cc2c1Nc1cc(F)c(OCc2cccc(Cl)n2)cc1Cl", "system": "male Sprague-Dawley rat, plasma", "setting": "300 mg/kg", "bioavailability [%]": 100}
{"SMILES": "COc1ccc(COc2c(OC)ccc3c2C[C@@H](C(=O)O)N(c2nc4ccc(F)cc4o2)C3)cn1", "system": "male Sprague-Dawley rat, plasma", "setting": "10 mg/kg", "bioavailability [%]": 45}
{"SMILES": "Cc1ncnc(C)c1-c1ccc(C(=O)N2CC[C@H](C(=O)Nc3cc(F)c(F)c(F)c3)C2)[nH]1", "system": "male Sprague-Dawley rat, plasma", "setting": "2 mg/kg", "bioavailability [%]": 79}
{"SMILES": "COc1ccc(COc2c(OC)ccc3c2C[C@@H](C(=O)O)N(c2nc4ccc(F)cc4o2)C3)cc1", "system": "male Sprague-Dawley rat, plasma", "setting": "10 mg/kg", "bioavailability [%]": 22}
{"SMILES": "Nc1nc(Cl)nc2c1ncn2Cc1cc(OCC(F)F)cc(OC(F)F)c1", "system": "Sprague-Dawley rat, plasma", "setting": "5 mg/kg", "bioavailability [%]": 100}
{"SMILES": "Nc1ccc(-c2ccc3ncc4c(=O)[nH]c(=O)n(-c5cccc(C(F)(F)F)c5)c4c3n2)cn1", "system": "male Sprague-Dawley rat, plasma", "setting": "4 mg/kg", "bioavailability [%]": 12.2}
{"SMILES": "N=C(N)NCCC[C@H](NC(=O)[C@@H]1CCCN1C(=O)[C@H](Cc1ccccc1)NC(=O)[C@@H]1CCCN1C(=O)[C@H](Cc1c[nH]cn1)NC(=O)[C@@H](N)Cc1ccccc1)C(=O)O", "system": "rat, plasma", "setting": "50 mg/kg", "bioavailability [%]": 88.2}
{"SMILES": "COc1cc(NC(C)=O)c2c(c1O)-c1c(OC)c(OC)cc3c1C(C2)N(C)CC3 (stereo not shown)", "system": "male Wistar rat, plasma", "bioavailability [%]": 76.5}
{"SMILES": "NC(COc1ccccc1C(F)(F)F)c1ccccc1 (stereo not shown)", "system": "male Sprague-Dawley rat, serum", "setting": "25 mg/kg", "bioavailability [%]": 38}
{"SMILES": "O=C(C1CCN(c2nnnn2-c2ccccc2)CC1)N1CCCc2ccccc21", "system": "male Sprague-Dawley rat, plasma", "setting": "5 mg/kg", "bioavailability [%]": "< 1"}
